Measurements of several laboratories.
Parts stem from different laboratories: compare values within a part only. Values joined by “and” are separate records of one study, mostly repeats; a detail may differ.

Series 1 — technique: RNA Bind-n-Seq; molecule type: RNA; sample: in vitro; concentration: 200 nM; notes: whole 134-nt RNA, ends assumed; added: 150 mM LiCl; relative to: input library; reading: higher = stronger binding; quantity: log2 enrichment; all molecules: 7-deaza-guanosine replaces G
Target: Fragile X messenger ribonucleoprotein 1, C-terminal low-complexity region (Fmr1, Mus musculus, UniProt P35922)
Constant ends, left off below: GGGAGUUCUACAGUCCGACGAUC … UGGAAUUCUCGGGUGUCAAGG
CUCAAGUCCUGUGCUACACAUCGUAUGUACCGAAUCGGUUUGGUGGUUUUUGGAAAGUAUUAUGUUACGCCGUUCGGAUCUGCACUUCCA: -0.0559
ACCAUGCAGGUGGGCAUCUUUGGGAAGUGGGGCAAGGGGGGGAUAGGGAGGGGGGUAACAAAUUGGGAACAGGUGGUCCCAGGUCGUUUC: 1.52
CUGUGCUACACAUCGUAUGUACCGAAUCGGGGCCCCCCCGGCCCCCCCGGGCCCCCCCGGGGAAAGUAUUAUGUUACGCCGUUCGGAUCU: 0.34
UGGCCCUGGUGGCAUGCGGGGAGGAAGAGGUGGCCCCAUGGAUCGUGGUGGUCCCGGUGGAAUGUUCAGAGGUGGCCGUGGUGGAGACAG: 0.21
CACAGACAACACGCACCCACACAGACACAGAGGGAAGGGGUUGGGAUGGGGACAGGGUGCACAGCAGGGCGGUGUAGGACCCCAGCCCCU: 0.301
GCAGGAAGUAAAAACAAAUGGAAAUGCUUCGGAUAGUGGAAGGGGUGGGGGUUGCUAAGGAAAGGGUGGGAUGGGAGUGGGUAAAGAGUU: 1.93
UCCUGUGCUACACAUCGUAUGUACCGAAUCGGCCCCCCGGGGCCCCCCGGGCCCCCCGGAAAGUAUUAUGUUACGCCGUUCGGAUCUGCA: -1.83

Series 2 — technique: protein-binding microarray; molecule type: double-stranded DNA, one strand shown; sample: in vitro; concentration: not given; reading: higher = stronger binding; quantity: E-score
Target: Transcriptional repressor CTCF (CTCF, Homo sapiens, UniProt P49711, residues 1-727, full length assumed)
Chain of UniProt P49711 (whole entry, looked up): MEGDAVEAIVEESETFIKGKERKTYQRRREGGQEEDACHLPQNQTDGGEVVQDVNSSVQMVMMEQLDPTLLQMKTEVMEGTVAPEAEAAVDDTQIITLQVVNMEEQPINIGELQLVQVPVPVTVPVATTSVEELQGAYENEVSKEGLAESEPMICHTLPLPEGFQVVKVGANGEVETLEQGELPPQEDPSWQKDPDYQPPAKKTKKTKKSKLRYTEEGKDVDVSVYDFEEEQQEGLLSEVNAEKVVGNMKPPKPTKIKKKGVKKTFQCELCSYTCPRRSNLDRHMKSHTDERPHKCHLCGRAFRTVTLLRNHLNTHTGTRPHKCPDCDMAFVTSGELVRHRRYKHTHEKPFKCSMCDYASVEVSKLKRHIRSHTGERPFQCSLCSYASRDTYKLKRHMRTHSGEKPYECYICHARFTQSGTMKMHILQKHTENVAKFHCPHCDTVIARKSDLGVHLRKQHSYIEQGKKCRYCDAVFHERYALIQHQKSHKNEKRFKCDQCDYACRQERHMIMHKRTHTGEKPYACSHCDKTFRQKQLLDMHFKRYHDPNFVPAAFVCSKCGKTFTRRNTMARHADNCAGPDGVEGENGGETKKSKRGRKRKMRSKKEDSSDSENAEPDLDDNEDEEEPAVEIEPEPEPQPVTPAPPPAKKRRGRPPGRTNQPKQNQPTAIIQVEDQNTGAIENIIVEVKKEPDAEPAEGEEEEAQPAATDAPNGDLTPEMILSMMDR
Notes: k-mer, scored over probes, only values ≥0.25
GTGTGTAA: 0.28
ACACCACT: 0.268
ATGTAATA: 0.378
ACATTTTA: 0.295
ATGATAAT: 0.312
GTTATTTA: 0.259
ATTATAAT: 0.277
CCCACCCC: 0.331
ATATTGTA: 0.265
ATTATTTC: 0.267
GCGCGTGA: 0.284

Series 3 — technique: protein-binding microarray; molecule type: double-stranded DNA, one strand shown; sample: in vitro; concentration: 250 nM; notes: 60-bp whole probe; added: salmon DNA 0.4 mg/ml; relative to: random background probes; reading: higher = stronger binding; quantity: log fluorescence; constant ends, left off below: GCCTAGCAC … GTCTTGATTCGCTTGACGCTGCTG
Target: Interferon regulatory factor 7, full length, phosphomimetic (IRF7, Homo sapiens, UniProt Q92985, residues 1-503, S101K/S471D/S472D/S475D/S476D/S477D/S483D/S484D/S487D)
Target sequence (chain): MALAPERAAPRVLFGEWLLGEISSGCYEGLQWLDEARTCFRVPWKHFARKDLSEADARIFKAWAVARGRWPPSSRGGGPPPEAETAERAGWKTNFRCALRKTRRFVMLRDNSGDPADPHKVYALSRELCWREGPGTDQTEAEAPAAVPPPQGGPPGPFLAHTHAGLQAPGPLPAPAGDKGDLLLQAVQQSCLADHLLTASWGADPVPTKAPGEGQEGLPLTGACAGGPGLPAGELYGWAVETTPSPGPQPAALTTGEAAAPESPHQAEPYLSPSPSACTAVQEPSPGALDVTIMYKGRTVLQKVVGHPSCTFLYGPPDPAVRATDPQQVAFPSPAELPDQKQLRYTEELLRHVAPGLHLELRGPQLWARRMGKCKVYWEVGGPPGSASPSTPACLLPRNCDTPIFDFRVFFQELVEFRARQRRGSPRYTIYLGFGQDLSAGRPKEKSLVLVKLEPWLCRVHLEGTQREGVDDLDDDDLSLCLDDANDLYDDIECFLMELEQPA
GACGGTATCGAGTATCGGGACGTGCTA: 0.128 z-score
TTCTTTACCACATTCTCTGCGTGCTAG: 1.4 z-score
GACGGACTGGACTATCCGGACGTGCTA: -0.607 z-score
TTAAATTTCAGACTGGATTAGTGCTAG: 0.0917 z-score
GACGATCTCAGTTTCGCGACGTGCTAG: 1.17 z-score
TTAGCTTTCAGTATCGATTAGTGCTAG: 0.866 z-score
GACGAACTGGGGTTTCGTGACGTGCTA: 0.426 z-score
TCCACTTTCTTAATGCTTCTGTGCTAG: 1.01 z-score
TTAGATATCGGGTATAGATTAGTGCTA: -0.0025 z-score

Single results of other studies
PhoQ, residues 284 288 289 292 302 303 SVTLVV — fold induction (PhoP, residues 12 14 15 18 19 LWHSL (Escherichia coli, UniProt P23836); Sort-seq, measured: YFP reporter; E. coli; PhoQ-PhoP variant library, added: 10 µM Mg2+; relative to: high Mg2+ state, higher = stronger signaling): 9.66 and 19.8

Some of these lines once more (series 2):
CCCACCCC: 0.331
ATATTGTA: 0.265
GCGCGTGA: 0.284
ATGTAATA: 0.378
ATTATTTC: 0.267
